# Measured values collected from several papers.
# Protocols differ between the studies behind these lines. Numbers after ± are the reported error.
Structure (SMILES),assay,system,setting,how to read,endpoint,value
CCCC[C@H](NC(=O)CNC(=O)CNC(=O)CN1CCN(CC(=O)O)CCN(CC(=O)O)CCN(CC(=O)O)CC1)C(=O)N[C@H]1CC(=O)NCCCC[C@@H](C(N)=O)NC(=O)[C@H](Cc2c[nH]c3ccccc23)NC(=O)[C@H](CCCNC(=N)N)NC(=O)[C@@H](Cc2ccccc2)NC(=O)[C@H](Cc2c[nH]cn2)NC1=O [gallium-67 labelled],,"female C57 mice, B16/F1 melanoma","intravenous, 0.037 MBq, 4 h",relative to: tumour over kidney,tumour to tissue ratio,2.4
C=CC(=O)Nc1cc(Nc2nccc(-c3cn(C)c4ccccc34)n2)c(OCC(F)(F)F)nc1NCCN(C)C,LC-MS,human liver microsomes,"3 µM, 60 min, with: sulfaphenazole 6 µM",relative to: no inhibitor,remaining parent compound,58%
Cn1ccc(-c2cc(Cl)c(Cl)c3[nH]c4c(c23)CN(C(=O)CO)CC4)n1,,"male C57BL/6 mice, concanavalin A, spleen","oral, 100 mg/kg, 16 h after concanavalin A",,cGAMP concentration,7.3 µM
CC(C)c1cnc(-c2cc(Cl)ccc2F)cc1Nc1ccncc1C(=O)NC(CO)CO,item: pyrexia,human patients,"oral, dose not given, grade 4",,patients with related SAE,0%
CCCC[C@H](NC(=O)[C@H](CC(C)C)N(C)C(=O)CNC(=O)[C@@H](NC(=O)[C@H](Cc1ccccc1)NC(=O)[C@H](CCCCN)NC(=O)[C@@H](N)CC(=O)O)C(C)C)C(N)=O,,anaesthetized spinalized rat,"IV, dose not given, not significant",relative to: baseline,heart rate increase,< 7%
CC1=C(/C=C/C(=O)N2CCN(C(N)=O)CC2)C(C)(C)CCC1,,"male mice, retina","oral, 20 mg/kg",,Cmax,4.79 nmol/g
COc1cc(C)c(Cc2ccc(O)cc2)cc1[C@@H]1S[C@H](CO)[C@@H](O)[C@H](O)[C@H]1O,,"Japanese T2DM patients, plasma","1 mg luseogliflozin, day 1, once daily",,Cmax,1.61 ± 0.383 ng/mL
NCC(=O)N1CCC[C@H]1C(=O)N1C[C@H](O)C[C@H]1C(=O)O,potentiometric titration,,"25 °C, MA complex, with: Fe(III)",,log beta,16.7
O=c1c(/C=N/NC(=S)N/N=C/c2cc(Cl)ccc2O)coc2ccccc12,cyclic voltammetry,DMF,Cu2+ complex,,peak current ratio ipa/ipc,0.071
Cn1c(=O)oc2ccc(-c3ccc(CC(C#N)NC(=O)C4CNCCCO4)c(F)c3)cc21 (stereo not drawn),item: urinary occult blood positive,human,"15 mg single dose, fasted",,subjects with TEAE,0%
CC(C)(Sc1ccncc1-c1ccc(C#N)c2ccccc12)C(=O)OC1OC(C(=O)O)C(O)C(O)C1O (stereo not drawn),,"adult men, plasma","oral, 15 mg verinurad, moderate renal impairment",relative to: normal renal function,AUC(0-inf) increase,213%
COCCOCCOCCOCCOCCOCCOCCOCCOCCOCCOCCOCCOCCOCCOCCOCCOCCOCCOCCOCCOCCOCCNC(=O)CCC1(Cc2ccccc2)c2ccccc2-c2ccc(-c3sc(-c4c5c(c(-c6sc(-c7ccc8c(c7)C(CCC(=O)NCCOCCOCCOCCOCCOCCOCCOCCOCCOCCOCCOCCOCCOCCOCCOCCOCCOCCOCCOCCOCCOCCOC)(Cc7ccccc7)c7ccccc7-8)c7c6OCCO7)c6nsnc46)N=S=N5)c4c3OCCO4)cc21 (stereo not drawn),,aqueous solution,,,zeta potential,-22.4 ± 0.5 mV
CC[C@H](C)[C@H](NC(=O)[C@H](CCCCN)NC(=O)[C@H](CS)NC(=O)[C@H](CC(N)=O)NC(=O)[C@H](C)NC(=O)[C@H](CCCNC(=N)N)NC(=O)[C@H](CCCNC(=N)N)NC(=O)[C@H](CC(N)=O)NC(=O)[C@H](CCCNC(=N)N)NC(=O)[C@@H](NC(=O)[C@H](CCCNC(=N)N)NC(=O)[C@H](CS)NC(=O)[C@H](CO)NC(=O)[C@@H](NC(=O)[C@@H](NC(=O)[C@H](CS)NC(=O)[C@H](CCCCN)NC(=O)[C@@H](N)CCCNC(=N)N)C(C)C)[C@@H](C)CC)[C@@H](C)CC)C(=O)N[C@@H](CC(C)C)C(=O)N[C@@H](CS)C(=O)N[C@@H](CC(N)=O)C(=O)O,LC/MS,PBS,0.1 mg/mL,relative to: LC peak area,two-disulfide form,51%
CC[C@H](C)[C@@H]1NC(=O)[C@H](Cc2ccccc2)NC(=O)[C@@H](NC(=O)[C@H](CCCNC(=N)N)NC(=O)[C@H](Cc2ccccc2)NC(=O)[C@H](Cc2ccccc2)NC(=O)[C@H](CCCCN)NC(=O)[C@H](CO)NC(=O)[C@H](CC(C)C)NC(=O)[C@H](CCCNC(=N)N)NC(=O)[C@H](CCSC)NC(=O)[C@H](C)N)CCCNC(=O)NCCCC[C@@H](C(=O)N[C@@H](CCCNC(=N)N)C(=O)N[C@@H](CCCCN)C(=O)N[C@@H](CCCCN)C(=O)O)NC(=O)[C@H](CC(C)C)NC1=O,circular dichroism,20% TFE in PBS,"200 µM, pH 7.4, 25 °C",,helicity,10.2%
COc1ccc(/C=C/c2ccc(-c3ccc(C)cn3)nc2)cc1,TCSPC,DMF,,,fluorescence lifetime,0.76 ns
CC(=O)N[C@H](CC(=O)O)C(=O)N[C@H](Cc1c[nH]c2ccccc12)C(=O)N[C@H](Cc1ccccc1)C(=O)N[C@H](CCCCN)C(=O)N[C@H](C)C(=O)N[C@H](Cc1ccccc1)C(=O)N[C@H](Cc1ccc(O)cc1)C(=O)N[C@H](CC(=O)O)C(=O)N[C@H](CCCCN)C(=O)N[C@@H](C(=O)N[C@H](C)C(=O)N[C@H](CCC(=O)O)C(=O)N[C@H](CCCCN)C(=O)N[C@H](Cc1ccccc1)C(=O)N[C@H](CCCCN)C(=O)N[C@H](CCC(=O)O)C(=O)N[C@H](C)C(=O)N[C@H](Cc1ccccc1)C(N)=O)C(C)C,,"statin-treated high-risk CHD women, plasma","oral, 500 mg daily, day 13, 0 to 8 h, mean, outlier excluded",,AUC(0-t),247 ng·h/mL
CN1/C(=C/C=C/c2cc(-c3ccccc3)cc(-c3ccccc3)[o+]2)C(C)(C)c2ccccc21,,"male CD-1 mouse, plasma","intravenous, 1 mg/kg, single dose",,MRT,0.226 h
NC12CNCCNCC(NCc3ccc(CNC(=O)CCCC(=O)NCc4ccc(-c5nncnn5)cc4)cc3)(CNCCNC1)CNCCNC2.[64Cu+2],OLINDA dosimetry,liver,"48 h pretargeting interval, with: huA33-TCO pretargeting",,mean absorbed dose,0.0334 rad/mCi
O=c1c2cc([N+](=O)[O-])ccc2n(CCO)n1Cc1ccccc1,resazurin,"peritoneal macrophages, BALB/c mice","48 h, 10% FBS",,CC50,15.9 ± 9.2 µM
COc1ccc(S(=O)(=O)N2CCc3ccccc3C2)cc1N1CCN(C(=O)c2ccc(F)cc2C(F)(F)F)CC1,,"rat, brain","intravenous, 10 mg/kg, 1 h, single dose",,concentration,80.6 ng/g
COCCOCCOCCOCCC(=O)NCc1cc(CNC(=O)CCOCCOCCOCCOC)cc(-c2cc3cc4nc(c(OC)c5[nH]c(cc6nc(cc2[nH]3)CC6(C)C)cc5-c2cc(CNC(=O)CCOCCOCCOCCOC)cc(CNC(=O)CCOCCOCCOCCOC)c2)CC4(C)C)c1,,PBS,,relative to: DMF,decrease of fluorescence quantum yield,20%
O=C(CCC(C(=O)[O-])N1CCN(C(CCC(=O)NCC(O)CO)C(=O)[O-])Cc2cccc(n2)CN(C(CCC(=O)NCC(O)CO)C(=O)[O-])CC1)NCC(O)CO.[153Gd+3] (stereo not drawn),,"Beagle dog, urine","intravenous, 0.2 mmol Gd/kg, 168 h",relative to: dose,excreted radioactivity,93.9%
COC[C@H]1C[C@H]2[C@@H](C)SC(N)=N[C@@]2(c2ccc(F)cc2F)CO1,metabolic stability,"human, liver microsomes",,,scaled CLint,< 8 mL/min/kg
COC(=O)C(c1ccccc1Cl)N1CCC2SC(=O)C=C2C1 (stereo not drawn),,acetonitrile,-20 °C,,stock solution stability time,≥ 2 months
C[C@H](Oc1cc(-c2cnn(C3CCN(CC[18F])CC3)c2)cnc1N)c1c(Cl)ccc(F)c1Cl,PET imaging,"nude mouse, muscle","iv, 30 min post injection",,tracer uptake,1.6 ± 0.7 %ID/cc
N=C(N)NCCC[C@@H]1NC(=O)[C@H](Cc2c[nH]c3ccccc23)NC(=O)[C@@H](CC2CCCCC2)NC(=O)[C@@H]2CCCN2C(=O)[C@@H](NC(=O)CCc2ccccc2)CCCNC1=O,,"C57BL/6J mice, brain","intravenous, 1 mg/kg, two-compartment model",,apparent distributional clearance,43.7 ng/(min·ng/g)
CCc1noc(CC)c1C(=O)O[C@H]1C(C)=C[C@]23C(=O)[C@@H](C=C(CO)[C@@H](O)[C@]12O)[C@H]1[C@@H](C[C@H]3C)C1(C)C,,phosphate buffer,"2 h, pH 7.4, 37 °C",,20-isomer formed,1%
CC(=O)N[C@H](CCNC(=O)c1cc(NC(=O)c2cc(NC(=O)c3cc(NC(=O)c4nccn4C)cn3C)cn2C)cn1C)C(=O)Nc1cn(C)c(C(=O)Nc2cc(C(=O)Nc3cc(C(=O)Nc4cc(C(=O)NCCCN(C)CCCN[14C](=O)c5cccc([14C](=O)O)c5)n(C)c4)n(C)c3)n(C)c2)n1,,"BALB/c male mice, bone marrow","intraperitoneal, 15 nmol per animal, 24 h",relative to: bone marrow over blood,tissue concentration ratio,> 10 fold
CC(C)(Sc1cc[n+]([O-])cc1-c1ccc(C#N)c2ccccc12)C(=O)OC1OC(C(=O)O)C(O)C(O)C1O (stereo not drawn),,plasma,"oral, 15 mg, severe renal impairment",relative to: impaired over normal renal function,AUC(0-inf) ratio,627%
COc1cc(NC(C)=O)c2c(c1O)-c1c(OC)c(OC)cc3c1C(C2)N(C)CC3 (stereo not drawn),,rat kidney homogenate,"100 µg/mL, 4 h, room temperature, short-term storage",,remaining compound,93.9 ± 2.7%
CN1CCC[C@]1(C)/C=C/S(=O)(=O)NC(=O)Nc1c2c(cc3c1CCC3)CCC2,,"human, urine","oral, 400 mg single dose",,amount recovered in urine,201 mg
CCCC(CCC)NC(=O)c1ccc(OC2OC(C(=O)O)C(O)C(O)C2O)c(O)c1 (stereo not drawn),,"female Sprague-Dawley rat, plasma","oral, 50 mg/kg of parent drug",,Tmax,4.3 h
O=C([O-])CN1CCN(CC(=O)[O-])CCN(CC(=O)NCCc2ccc3c(c2)C2C=CCC2C(c2cc4c(cc2Br)OCO4)N3)CCN(CC(=O)[O-])CC1.[111In+3] (stereo not drawn),,"mouse, Hec50 endometrial tumour, lungs",1 h post injection,,tissue uptake,2.5 ± 0.44 %ID/g
CN(C)c1cc(CN2CCCCC2)c(O)c2c1C[C@H]1C[C@H]3[C@H](N(C)C)C(O)=C(C(N)=O)C(=O)[C@@]3(O)C(O)=C1C2=O,,"cynomolgus monkey, plasma","oral, 5 mg/kg",,oral bioavailability,7.8%
CN(Cc1ccc(F)cc1)Cc1cc(=O)oc2cc(O)ccc12,,human serum,"0.5 mM, 180 min",,remaining intact compound,> 99%
CC12CC(c3ccc(S(C)(=O)=O)cc3)C3=C4CCC(=O)C=C4CCC3C1CCC2(O)C(F)(F)C(F)(F)F (stereo not drawn),,"human, plasma","intravenous, 15.7 µg, [14C] microdose, geometric mean",,Vz,442 L
CC[C@H](C)[C@H](NC(=O)[C@H](Cc1ccccc1)NC(=O)[C@H](CCCN)NC(=O)[C@H](CCCNC(=N)N)NC(=O)[C@H](Cc1ccccc1)NC(=O)[C@H](Cc1ccccc1)NC(=O)[C@H](CCCCN)NC(=O)[C@H](CO)NC(=O)[C@H](CC(C)C)NC(=O)[C@H](CCCNC(=N)N)NC(=O)[C@H](CCSC)NC(=O)[C@H](C)N)C(=O)N[C@@H](CC(C)C)C(=O)N[C@@H](CCCN)C(=O)N[C@@H](CCCNC(=N)N)C(=O)N[C@@H](CCCCN)C(=O)N[C@@H](CCCCN)C(=O)O,circular dichroism,20% TFE in PBS,"200 µM, pH 7.4, 25 °C",,helicity,15.7%
C[C@H]1NSc2nc(=O)c3[nH]ccc3n2Cc2ccc(Cl)cc21,,"dog, both sexes, plasma",100 mg/kg,relative to: dog over human 10 mg,exposure ratio,not detected
COc1cc2c(cc1OC)CN(CCCCn1ccc3cc(OCC[18F])ccc31)C2,,"male CD-1 mouse, brain","intravenous, 30 min",,tracer uptake,2.68 %ID/g

# Repeated from above:
Structure (SMILES),assay,system,setting,how to read,endpoint,value
CC(C)c1cnc(-c2cc(Cl)ccc2F)cc1Nc1ccncc1C(=O)NC(CO)CO,item: pyrexia,human patients,"oral, dose not given, grade 4",,patients with related SAE,0%
CN1/C(=C/C=C/c2cc(-c3ccccc3)cc(-c3ccccc3)[o+]2)C(C)(C)c2ccccc21,,"male CD-1 mouse, plasma","intravenous, 1 mg/kg, single dose",,MRT,0.226 h
NC12CNCCNCC(NCc3ccc(CNC(=O)CCCC(=O)NCc4ccc(-c5nncnn5)cc4)cc3)(CNCCNC1)CNCCNC2.[64Cu+2],OLINDA dosimetry,liver,"48 h pretargeting interval, with: huA33-TCO pretargeting",,mean absorbed dose,0.0334 rad/mCi
O=c1c(/C=N/NC(=S)N/N=C/c2cc(Cl)ccc2O)coc2ccccc12,cyclic voltammetry,DMF,Cu2+ complex,,peak current ratio ipa/ipc,0.071
